{"data": "Measured values pooled from the literature", "note": "Parts stem from different laboratories: compare values within a part only."}
{"data": "Set 1", "target": "Interferon regulatory factor 5, full length, phosphomimetic (IRF5, Homo sapiens, UniProt Q13568-2, residues 1-514, S451D/S453D/S456D/S462D)", "method": "protein-binding microarray", "form": "double-stranded DNA, one strand shown", "matrix": "in vitro", "tested at": "940 nM top", "setting": "60-bp whole probe", "together with": "salmon DNA 0.4 mg/ml", "reference": "random background probes", "direction": "higher = stronger binding", "constant ends, left off below": "GCCTAGCAC … GTCTTGATTCGCTTGACGCTGCTG"}
{"Oligonucleotide": "GACGGACTGGGTTTTGGGACGTGCTAG", "fitted relative affinity [z-score]": -0.146}
{"Oligonucleotide": "TTAGGACTGGGACCGGGTTAGTGCTAG", "fitted relative affinity [z-score]": -0.808}
{"Oligonucleotide": "CTCATTCTCCACTTGTGTTTGTGCTAG", "fitted relative affinity [z-score]": 0.775}
{"Oligonucleotide": "GACGAACTGGGGTTGCGAGACGTGCTA", "fitted relative affinity [z-score]": 0.011}
{"Oligonucleotide": "GACGATCTCAGTATCGGGACGTGCTAG", "fitted relative affinity [z-score]": 1.73}
{"Oligonucleotide": "GACGGTGCCCTTTTCCTGACGTGCTAG", "fitted relative affinity [z-score]": 0.139}
{"Oligonucleotide": "GACGGAATCGGTTTCGGGACGTGCTAG", "fitted relative affinity [z-score]": 5.08}
{"Oligonucleotide": "CCCTGAGTCCCTTGGGCCTTGTGCTAG", "fitted relative affinity [z-score]": -0.757}
{"Oligonucleotide": "TTAGGACTGCTTATCCTATAGTGCTAG", "fitted relative affinity [z-score]": -0.142}
{"Oligonucleotide": "GAAGATTTCAATTAGAAAAAGTGCTAG", "fitted relative affinity [z-score]": -0.171}
{"Oligonucleotide": "TTAGAACTGGGGACTTGATTAGTGCTA", "fitted relative affinity [z-score]": -0.0827}
{"Oligonucleotide": "TCTGTTTTTGCTTTCTTTATGTGCTAG", "fitted relative affinity [z-score]": 2.39}
{"Oligonucleotide": "TATGGCTTCAAGTAACTACAGTGCTAG", "fitted relative affinity [z-score]": -0.525}
{"Oligonucleotide": "TTAGGTATCCTTATCCTTCAGTGCTAG", "fitted relative affinity [z-score]": 0.39}
{"Oligonucleotide": "TTCACTATTGCTTCCTCTTTGTGCTAG", "fitted relative affinity [z-score]": 1.23}
{"Oligonucleotide": "TCAGATTTCAATTAGAAACTGTGCTAG", "fitted relative affinity [z-score]": 0.409}
{"Oligonucleotide": "GTCATACGAGCGGTAGCCAAGTGCTAG", "fitted relative affinity [z-score]": -0.352}
{"Oligonucleotide": "GACGGTTTCGACGATCGGGACGTGCTA", "fitted relative affinity [z-score]": 7.39}
{"Oligonucleotide": "TTAGATTTCAGACTGGATGAGTGCTAG", "fitted relative affinity [z-score]": -0.446}
{"data": "Set 2", "target": "Ras GTPase-activating protein-binding protein 1, C-terminal RGG region (G3BP1, Homo sapiens, UniProt Q13283)", "method": "RNA Bind-n-Seq", "form": "RNA", "matrix": "in vitro", "tested at": "1 µM", "setting": "whole 134-nt RNA, ends assumed", "together with": "150 mM KCl", "reference": "input library", "direction": "higher = stronger binding", "sequence of UniProt Q13283 (whole entry, looked up)": "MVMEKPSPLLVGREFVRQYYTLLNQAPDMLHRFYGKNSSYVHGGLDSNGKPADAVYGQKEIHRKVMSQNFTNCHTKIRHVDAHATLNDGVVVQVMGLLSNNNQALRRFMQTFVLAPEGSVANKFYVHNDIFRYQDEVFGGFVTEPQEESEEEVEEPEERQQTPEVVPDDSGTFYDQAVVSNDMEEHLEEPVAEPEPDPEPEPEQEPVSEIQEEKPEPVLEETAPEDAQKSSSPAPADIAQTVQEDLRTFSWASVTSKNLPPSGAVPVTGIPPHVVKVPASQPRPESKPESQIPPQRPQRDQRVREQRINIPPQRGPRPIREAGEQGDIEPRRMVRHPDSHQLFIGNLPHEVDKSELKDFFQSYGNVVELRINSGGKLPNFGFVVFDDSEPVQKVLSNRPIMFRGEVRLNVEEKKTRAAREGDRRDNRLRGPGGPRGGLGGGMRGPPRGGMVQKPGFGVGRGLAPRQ"}
{"Oligonucleotide": "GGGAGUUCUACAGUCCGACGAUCUCCUGUGCUACACAUCGUAUGUACCGAAUCGGGGAAAAAAAGGGGUUUGGGGAAAGGGGAAAGUAUUAUGUUACGCCGUUCGGAUCUGCAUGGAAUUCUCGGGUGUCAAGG", "log2 enrichment": 2.88}
{"Oligonucleotide": "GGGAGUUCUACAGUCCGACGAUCCAAGUCCUGUGCUACACAUCGUAUGUACCGAAUCGGAAAGGUUUUUGGAAAAAGGAAAGUAUUAUGUUACGCCGUUCGGAUCUGCACUUCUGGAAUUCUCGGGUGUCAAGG", "log2 enrichment": -1.82}
{"Oligonucleotide": "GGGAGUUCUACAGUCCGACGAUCGCAGGAAGUAAAAACAAAUGGAAAUGCUUCGGCUAGUGGCAGGGGUGGGGGUUGCUAAGGAAAGGGUGGGAUGGGAGUGGGUAAAGAGUUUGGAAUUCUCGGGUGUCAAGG", "log2 enrichment": 1.99}
{"Oligonucleotide": "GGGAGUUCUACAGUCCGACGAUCUGGCCCUGGUGGCAUGCUGGGAGGAAGAGGUGGCCUCAUGGAUCGUGGUGGUCCCGGUGGAAUGUUCAGAGGUGGCCGUGGUGGAGACAGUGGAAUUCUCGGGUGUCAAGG", "log2 enrichment": 2.39}
{"Oligonucleotide": "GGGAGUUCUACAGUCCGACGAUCCCUGUGCUACACAUCGUAUGUACCGAAUCGGGGUUUUUUUGGGGAGGGGAAAAAAAGGGGAAAGUAUUAUGUUACGCCGUUCGGAUCUGCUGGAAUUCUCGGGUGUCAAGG", "log2 enrichment": 0.198}
{"Oligonucleotide": "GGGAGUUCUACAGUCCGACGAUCCAAGUCCUGUGCUACACAUCGUAUGUACCGAAUCGGUUUUUUUGGAAAAAGGUGGAAAGUAUUAUGUUACGCCGUUCGGAUCUGCACUUCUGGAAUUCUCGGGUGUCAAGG", "log2 enrichment": -1.73}
{"Oligonucleotide": "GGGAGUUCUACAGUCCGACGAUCUGCGAUAUGAACGUUCACAAGCAAUGCGUCAUCAAUGUCCCCAGCCUCUGCGGAAUGGAUCACACUGAGAAGAGGGGGCGGAUUUACCUAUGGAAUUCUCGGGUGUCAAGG", "log2 enrichment": -1.2}
{"Oligonucleotide": "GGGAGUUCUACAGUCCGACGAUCUGUGCUACACAUCGUAUGUACCGAAUCGGGCCCCCCCGGGCCCCCCCGGGGCCCCCCCGGGGAAAGUAUUAUGUUACGCCGUUCGGAUCUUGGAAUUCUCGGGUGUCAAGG", "log2 enrichment": -2.69}
{"Oligonucleotide": "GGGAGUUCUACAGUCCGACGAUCACCAUGCAGGUGGGCAUCUUUGGGAAGUGGGGCAAGGGGGGGAUAGGGAGGGGGGUAACACUUUGGGAACAGGUGGUCCCAGGCCGUUUCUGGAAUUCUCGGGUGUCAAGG", "log2 enrichment": 1.61}
{"data": "Set 3", "target": "RNA binding protein fox-1 homolog 2, RRM domain, GST-SBP tag (RBFOX2, Homo sapiens, UniProt O43251-10, residues 100-194)", "method": "RNA Bind-n-Seq", "form": "RNA", "matrix": "in vitro", "tested at": "365 nM", "setting": "natural RNA segment, single round, ends assumed", "reference": "no-protein control", "direction": "higher = stronger binding", "Target sequence (chain)": "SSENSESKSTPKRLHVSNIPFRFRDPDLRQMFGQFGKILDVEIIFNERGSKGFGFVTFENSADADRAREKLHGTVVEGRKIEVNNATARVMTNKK"}
{"Oligonucleotide": "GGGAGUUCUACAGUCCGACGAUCGCACUUGAAGGAAAAGGCCUCUGCUUACAUCACCCUGACUAGGCCCGGCUCUGCUUCCCCAGGAUCUUUGGGUGGUGCUAUCUCCUGCCUCUUGGAGCUCCUGGCGCUCCUGGAAUUCUCGGGUGCCAA", "RBNS enrichment (R)": 0.371}
{"Oligonucleotide": "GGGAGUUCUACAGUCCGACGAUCGCAAGAGCCAUGUUUUUGAGAAGGUUCUGGAUCUCUGACUCCAUCCUGACUGUUUAGUAAGAGCAUGCUUACACCCUACUGUGAAAAGGGGAGGGGAUGUGGUAAGCGGAUGGAAUUCUCGGGUGCCAA", "RBNS enrichment (R)": 11.8}
{"Oligonucleotide": "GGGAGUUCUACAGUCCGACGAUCAACACUACCCCACCCCCAACUAGGAGGAACCUCUGUUUUCAAGAGAGAUGCCUGUCCUGUGCUUGGAUAGUCAGUCAAUUAUUUGUGUAUGAAACAAUGUACAAAUCAAUUGGAAUUCUCGGGUGCCAA", "RBNS enrichment (R)": 0.269}
{"Oligonucleotide": "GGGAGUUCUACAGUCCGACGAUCGCCACGCAGGAUCCCGUGUCCUGCAGACGAGAGCGGCUUUCUUGUUUGUGGGAUUUUGUUUGGACACAGAGUUGUUUUGCAAUCAUGGUGUGCUUCCCAGGGACAGAGCGUGGAAUUCUCGGGUGCCAA", "RBNS enrichment (R)": 0.777}
{"Oligonucleotide": "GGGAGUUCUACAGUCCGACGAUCUGGAAACUUUUCUUAAAAAGUUAUAACCAACUUUUCUAUUAAAAGUGGGAAUUAGGAGAGAAGGUAGGGGUUGGGAAUCAGAGAGAAUGGCUUUGGUCUCUUGCUUGUGGUGGAAUUCUCGGGUGCCAA", "RBNS enrichment (R)": 1.43}
{"Oligonucleotide": "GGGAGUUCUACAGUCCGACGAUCAGACCAAAUCAGAAAACCCCCCACCCCAGGCUUCCCAAUAAGAUGAUCGGCACCAGAAUCCACUGUCAAUAGGCCCGUGGGUGAUCAUUACAAUUGCAAAUCUUUACUUAUGGAAUUCUCGGGUGCCAA", "RBNS enrichment (R)": 0.436}
{"Oligonucleotide": "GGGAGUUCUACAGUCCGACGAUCGGAUGUGGCUGUAACCUGCUGGAUGGGACUCCAUAGCUCCUUCCCAGGACCCCUCAGCUCCCCGGCACUGCAGUCUGCAGAGUUCUCCUGGAGGCAGGGGCUGCUGCCUUUGGAAUUCUCGGGUGCCAA", "RBNS enrichment (R)": 0.638}
{"Oligonucleotide": "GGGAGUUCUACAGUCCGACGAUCCCAGGGUCACCACCUGUCACAGCAAUACCUGGGACCAUGCUCUCCUGGGACUGUGAGGCUCCUUUUGACGUACUUUUGACAUCAGGCAGGUUUGGGAAGAAACAAAGCCAUGGAAUUCUCGGGUGCCAA", "RBNS enrichment (R)": 1.21}
{"data": "Set 4", "target": "Prothrombin, mature alpha-thrombin (F2, Homo sapiens, UniProt P00734)", "method": "aptamer microarray, sandwich", "form": "DNA with 2'F-ANA", "matrix": "in vitro", "tested at": "200 nM", "setting": "whole 15-mer aptamer, many near background", "together with": "Cy3 exosite-II aptamer, 400 nM", "direction": "higher = stronger binding", "oligonucleotide": "GGTTGGTGTGGTTGG"}
{"Modification": "2'F-ANA at 6 7 8 9", "mean fluorescence intensity": "565 a.u."}
{"Modification": "2'F-ANA at 1 3 5 7 10 12", "mean fluorescence intensity": "71.4 a.u."}
{"Modification": "2'F-ANA at 1 2 3 4 7 10 11 13", "mean fluorescence intensity": "63.9 a.u."}
{"Modification": "2'F-ANA at 1 2 3 4 5 6 8 11 14 15", "mean fluorescence intensity": "60.7 a.u."}
{"Modification": "2'F-ANA at 2 4 5 6 10 11 12 14 15", "mean fluorescence intensity": "50.4 a.u."}
{"Modification": "2'F-ANA at 1 2 7 8 9 10 12 14", "mean fluorescence intensity": "51.7 a.u."}
{"Modification": "2'F-ANA at 4 6 7 11 12 13 14", "mean fluorescence intensity": "102 a.u."}
{"Modification": "2'F-ANA at 1 2 4 5 7 8 10 13 14", "mean fluorescence intensity": "47.9 a.u."}
{"Modification": "2'F-ANA at 4 5 6 8 9 10 12 15", "mean fluorescence intensity": "59.1 a.u."}
{"Modification": "2'F-ANA at 1 2 4 6 10 11 12 13", "mean fluorescence intensity": "52.6 a.u."}
{"Modification": "2'F-ANA at 2 4 6 11 12 14", "mean fluorescence intensity": "106 a.u."}
{"Modification": "2'F-ANA at 1 3 4 6 10 11 15", "mean fluorescence intensity": "58.9 a.u."}
{"Modification": "2'F-ANA at 4 5 6 8 9 10 12 14", "mean fluorescence intensity": "41.5 a.u."}
{"Modification": "2'F-ANA at 4 8 13 15", "mean fluorescence intensity": "268 a.u."}
{"Modification": "2'F-ANA at 4 5 6 7 8 10 12 13", "mean fluorescence intensity": "45.5 a.u."}
{"Modification": "2'F-ANA at 3 11 14", "mean fluorescence intensity": "722 a.u."}
{"Modification": "2'F-ANA at 2 6 7 8 10 11 12 13", "mean fluorescence intensity": "146 a.u."}
{"Modification": "2'F-ANA at 1 3 7 8 9 12 14 15", "mean fluorescence intensity": "135 a.u."}
{"note": "For quick reference, copied from above (set 4):"}
{"Modification": "2'F-ANA at 1 2 4 5 7 8 10 13 14", "mean fluorescence intensity": "47.9 a.u."}
{"Modification": "2'F-ANA at 4 5 6 7 8 10 12 13", "mean fluorescence intensity": "45.5 a.u."}
{"Modification": "2'F-ANA at 1 2 7 8 9 10 12 14", "mean fluorescence intensity": "51.7 a.u."}
{"Modification": "2'F-ANA at 2 4 5 6 10 11 12 14 15", "mean fluorescence intensity": "50.4 a.u."}
{"Modification": "2'F-ANA at 2 6 7 8 10 11 12 13", "mean fluorescence intensity": "146 a.u."}
{"Modification": "2'F-ANA at 1 2 4 6 10 11 12 13", "mean fluorescence intensity": "52.6 a.u."}
